Measured values gathered from unrelated publications.
Every numbered part comes from another study and shows a few of its results, in no order.

Set 1
Target: RING finger protein unkempt homolog, zinc fingers 1-6, SBP tag (UNK, Homo sapiens, UniProt Q9C0B0, residues 30-357)
UniProt Q9C0B0, sequence (30-357, looked up): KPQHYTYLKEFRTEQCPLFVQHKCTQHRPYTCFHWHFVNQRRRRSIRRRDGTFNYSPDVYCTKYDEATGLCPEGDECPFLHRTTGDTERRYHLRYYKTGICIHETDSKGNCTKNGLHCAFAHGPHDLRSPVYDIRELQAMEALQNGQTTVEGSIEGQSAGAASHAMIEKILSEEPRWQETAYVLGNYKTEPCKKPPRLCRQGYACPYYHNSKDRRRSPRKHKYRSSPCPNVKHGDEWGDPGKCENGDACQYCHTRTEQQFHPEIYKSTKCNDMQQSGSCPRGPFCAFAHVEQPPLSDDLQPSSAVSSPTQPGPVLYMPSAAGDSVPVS
Technique: RNA Bind-n-Seq
Molecule type: RNA
Matrix: in vitro
Concentration: 100 nM
Setting: RNA with constant flanks, vertebrate orthologous sites, ends assumed
Relative to: input RNA pool
Direction: higher = stronger binding
Strand | bound/input enrichment
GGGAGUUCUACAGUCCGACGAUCUCCAGCCUCAACUGACUGUUUCACAGCAUUCCUUACACAGCUAUUUAACAAGUACAAGUGGAGUUAACUUUCAGGAUACAUCUAGGCACUCAGCAUUAUCCUGCAGUCCAGUUGGAGAUGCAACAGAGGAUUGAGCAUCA | 0.246 ratio
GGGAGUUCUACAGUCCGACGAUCCUGGGCUGGGACAGGUUUUUUUUUUUUUUUUUAAGUCUUGAAACUUAAACUCUGUGCUUGUAGGAGACUGUAACCUUUUGUCUUUUUUUUUUUUUUUUUAAACAAACAACCUCCACCUCCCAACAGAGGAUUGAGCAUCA | 2.17 ratio
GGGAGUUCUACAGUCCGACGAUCGCAAUGAAAAAGCAGCCCUUCUCCCAGCCCCCUUUUCACUAGGAGAUACAAACAUUACCGUAGAAGAGCAAUUAAACUCAAUAAAUUUAUCUUUUCAGGAUGAUCCAGACUCCAGUACCACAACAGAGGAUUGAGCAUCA | 1.55 ratio
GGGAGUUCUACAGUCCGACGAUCUUACAGUCAUUGAUGGACUCUAUUUUUUUAUUAUUACUUGGACCUUGGUCGUUUUUAUACUAGCAACGGAAAAUGUCUUGUUUUAAUUUGUUUUUUGGGGGGUGCGGGGUGGGAAGUGUCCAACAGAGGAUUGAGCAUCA | 1.12 ratio
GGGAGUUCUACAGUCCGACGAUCCUGCUUGAGGGUACAGGGGAGGGAGGGGUAGGACAGUACGGAAUCUGGGGUGAUGUGGGUAGAUGGGGGAACAGUUCCAAGUGGGCUUUUUGAUGCUACCCUCUGGAGGUGUUUGGGGUGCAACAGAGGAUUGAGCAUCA | 0.463 ratio
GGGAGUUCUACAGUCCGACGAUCCGGGGUGUACCUGUGGGGCGCUGCUGGCCACCGAGUGUCGUUUGAUUUGUGACCUUGACCUAAUAGAUAGGCUUGUGUUUUUGUUUUUUGGGUUUUUUUUUUAAUUUAAAAAUGUUAAGACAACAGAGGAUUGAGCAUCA | 0.593 ratio
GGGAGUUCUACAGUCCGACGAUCAGGAAAUGUUAGCUGCUAAUCCCCAGGAACGUCCAGAUGCUUUUGAACUUGAACUGCGAUUAGUCAAAAUUGCAUACAAAGACUGCAACUGGGAUACGUGAUAUAUACUUUUUAAAAAAACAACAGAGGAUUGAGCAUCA | 0.735 ratio
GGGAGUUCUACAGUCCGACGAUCCUCUACGGGCCUCGCAGAGUGGAGAUAAUGGAAGAGGAAAGUGAACAGUAAUCUUCAUUUUAGUAUUUAUGCUUAGGUGUGAAAUAAAUGUUAUUUGUUGAUCAUAUCUAUAACCCAGAGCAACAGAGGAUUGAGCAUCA | 0.751 ratio
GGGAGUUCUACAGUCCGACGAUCUUCAAGCACAACUGACUGGUUCACAGCAUCCCUUACAUAGUUAUCUAUCAAGUGCAGGUGUGGUUAAUUUUCAGGAAACAAGCAGGCAGUCAUCUUUAUCCUGUAGCCCAAUUGGAGAUUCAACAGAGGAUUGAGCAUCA | 2.11 ratio
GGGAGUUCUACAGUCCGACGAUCUUUGUGGGGAUCGGGGGGUGGGAAGAAGAUGUAUGGAUGUUAUUGGCAUUUUUAAAUGUUCAGAGGUUUUUGUUUUGUUUUGUUUUGUUUUGUUUUGUUUUGUUUCUUCUGUUUUGUUUUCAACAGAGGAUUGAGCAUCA | 1.03 ratio
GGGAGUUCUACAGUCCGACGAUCACACAAAGAAGCAGGACAAGAUAUUUUAACUGUUUAAAAAUUGAGCUUUGCUGUUUUACAUAGAAUACUUUUAUAUUGUAAGUGCUUAAAAUGUGUGGAGAUGUUAGUUUUGCUCUUAUACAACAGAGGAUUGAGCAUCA | 0.429 ratio

Set 2
Target: Prothrombin, mature alpha-thrombin (F2, Homo sapiens, UniProt P00734)
Technique: aptamer microarray, sandwich
Molecule type: DNA with 2'F-ANA
Matrix: in vitro
Concentration: 200 nM
Setting: whole 15-mer aptamer, many near background
With: Cy3 exosite-II aptamer, 400 nM
Direction: higher = stronger binding
Strand: GGTTGGTGTGGTTGG
Modification | mean fluorescence intensity
2'F-ANA at 2 4 5 6 7 10 11 13 | 77.3 a.u.
2'F-ANA at 3 4 5 7 9 10 13 15 | 58.4 a.u.
2'F-ANA at 1 2 8 11 12 15 | 316 a.u.
2'F-ANA at 1 3 4 5 6 7 8 10 15 | 47 a.u.
2'F-ANA at 3 6 7 9 11 12 13 14 15 | 530 a.u.
2'F-ANA at 7 11 13 15 | 512 a.u.
2'F-ANA at 2 4 6 8 9 11 12 13 14 15 | 79.7 a.u.
2'F-ANA at 3 4 10 12 13 14 15 | 195 a.u.
2'F-ANA at 5 9 10 11 12 13 | 50.3 a.u.
2'F-ANA at 2 6 10 13 15 | 111 a.u.
2'F-ANA at 2 3 6 10 12 13 14 | 270 a.u.
2'F-ANA at 1 2 3 7 8 10 12 13 15 | 109 a.u.
2'F-ANA at 1 4 5 6 7 8 9 | 73.2 a.u.

Set 3
Target: Protein C-ets-1 (ETS1, Homo sapiens, UniProt P14921, residues 1-441, Y397A, full length assumed)
Technique: protein-binding microarray
Molecule type: double-stranded DNA, one strand shown
Matrix: in vitro
Concentration: not given
Setting: k-mer, scored over probes, only values ≥0.25
Direction: higher = stronger binding
Residues (chain): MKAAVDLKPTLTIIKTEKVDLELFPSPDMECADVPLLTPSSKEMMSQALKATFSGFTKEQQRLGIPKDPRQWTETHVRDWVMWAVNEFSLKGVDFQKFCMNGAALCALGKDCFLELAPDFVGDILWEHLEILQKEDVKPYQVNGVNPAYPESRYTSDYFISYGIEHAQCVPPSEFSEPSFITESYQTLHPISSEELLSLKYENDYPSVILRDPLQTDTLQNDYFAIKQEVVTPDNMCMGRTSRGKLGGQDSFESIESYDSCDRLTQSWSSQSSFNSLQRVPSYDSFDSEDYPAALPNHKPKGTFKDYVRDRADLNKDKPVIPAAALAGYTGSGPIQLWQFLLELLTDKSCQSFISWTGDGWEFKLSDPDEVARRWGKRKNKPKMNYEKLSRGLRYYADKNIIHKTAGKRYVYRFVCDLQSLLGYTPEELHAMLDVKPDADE
Strand | E-score
ACAGCAAA | 0.307
CGACAACA | 0.378
CATCCGCC | 0.381
CGGCAATA | 0.315
AACCGACA | 0.279
ATTGTCGG | 0.384
ACCTCCCC | 0.271

Further values, each from its own experiment
Molecule | target | test | test system | setting | how to read | endpoint | value
PhoQ, residues 284 288 289 292 302 303 SLANIV | PhoP, residues 12 14 15 18 19 LHTVL (Escherichia coli, UniProt P23836) | Sort-seq, item: YFP reporter | E. coli | PhoQ-PhoP variant library, with: 10 µM Mg2+ | relative to: high Mg2+ state, higher = stronger signaling | fold induction | 4.34

Excerpt of the above (set 3):
Strand | E-score
CGACAACA | 0.378
CGGCAATA | 0.315
ACAGCAAA | 0.307
CATCCGCC | 0.381
